Measurements of several laboratories.
Protocols differ between the studies behind these lines. ± gives the spread as reported.
Chain of UniProt P0A725 (whole entry, looked up): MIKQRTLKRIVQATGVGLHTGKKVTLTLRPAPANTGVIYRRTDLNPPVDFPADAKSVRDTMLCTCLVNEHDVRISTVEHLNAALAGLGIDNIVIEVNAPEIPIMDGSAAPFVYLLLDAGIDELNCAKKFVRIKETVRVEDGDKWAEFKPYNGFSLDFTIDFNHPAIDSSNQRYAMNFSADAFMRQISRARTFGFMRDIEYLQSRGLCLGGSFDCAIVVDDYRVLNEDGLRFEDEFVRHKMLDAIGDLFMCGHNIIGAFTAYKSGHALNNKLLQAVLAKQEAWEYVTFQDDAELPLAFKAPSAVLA
Chain of UniProt P21729 (whole entry, looked up): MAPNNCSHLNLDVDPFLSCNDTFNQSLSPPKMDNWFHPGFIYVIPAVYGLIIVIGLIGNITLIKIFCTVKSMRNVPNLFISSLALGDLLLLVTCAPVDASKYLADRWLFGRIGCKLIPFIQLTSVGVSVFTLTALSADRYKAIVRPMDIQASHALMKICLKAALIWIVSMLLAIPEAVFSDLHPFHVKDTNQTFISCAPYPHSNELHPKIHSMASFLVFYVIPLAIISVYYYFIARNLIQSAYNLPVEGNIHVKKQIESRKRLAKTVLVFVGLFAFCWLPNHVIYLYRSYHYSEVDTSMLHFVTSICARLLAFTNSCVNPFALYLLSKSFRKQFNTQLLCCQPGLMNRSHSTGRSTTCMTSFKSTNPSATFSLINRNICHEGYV

Compound | tested on | test | test system | conditions | how to read | quantity | value
CN[C@](C)(C[18F])C(=O)O | SK-OV-3 tumour model |  | host not given, pancreas | 2 h, tumour-bearing |  | tracer uptake | 20 %ID/g
CCCC[C@H](NC(=O)CNC(=O)CNC(=O)c1ccc(NN)nc1)C(=O)N[C@H]1CC(=O)NCCCC[C@@H](C(N)=O)NC(=O)[C@H](Cc2c[nH]c3ccccc23)NC(=O)[C@H](CCCNC(=N)N)NC(=O)[C@@H](Cc2ccccc2)NC(=O)[C@H](Cc2c[nH]cn2)NC1=O [technetium-99m labelled] |  |  | C57 mouse, B16/F1 melanoma-bearing | intravenous, 2 h | relative to: tumour over skin | tissue uptake ratio | 42.9
N=C(N)NCCC[C@@H]1NC(=O)[C@H](CCCCNC(=O)CC[C@H](NC(=O)CCOCCOCCOCCOCCNC(=O)CC[C@H](NC(=O)CN2CCN(CC(=O)O)CCN(CC(=O)O)CCN(CC(=O)O)CC2)C(=O)NCCOCCOCCOCCOCCC(=O)N[C@@H](CCC(=O)NCCCC[C@@H]2NC(=O)[C@@H](Cc3ccccc3)NC(=O)[C@H](CC(=O)O)NC(=O)CNC(=O)[C@H](CCCNC(=N)N)NC2=O)C(=O)NCCCC[C@@H]2NC(=O)[C@@H](Cc3ccccc3)NC(=O)[C@H](CC(=O)O)NC(=O)CNC(=O)[C@H](CCCNC(=N)N)NC2=O)C(=O)NCCCC[C@@H]2NC(=O)[C@@H](Cc3ccccc3)NC(=O)[C@H](CC(=O)O)NC(=O)CNC(=O)[C@H](CCCNC(=N)N)NC2=O)NC(=O)[C@@H](Cc2ccccc2)NC(=O)[C@H](CC(=O)O)NC(=O)CNC1=O [indium-111 labelled] |  |  | athymic nude mice, female, U-87 MG glioma xenograft, tumour and kidney | intravenous, 4 h | relative to: tumour over kidney | tumour to tissue ratio | 1.49 ± 0.93
CCCNC(=O)[C@H](CC(C)C)NC(=O)[C@H](Cc1c[nH]cn1)NC(=O)CNC(=O)[C@@H](NC(=O)[C@H](C)NC(=O)[C@H](Cc1c[nH]c2ccccc12)NC(=O)[C@H](CCC(N)=O)NC(=O)[C@@H](Cc1ccccc1)NC(=O)CCCCCNC(=O)CN1CCN(CC(=O)O)CCN(CC(=O)O)CCN(CC(=O)O)CC1)C(C)C [indium-111 labelled] | Gastrin-releasing peptide receptor (Mus musculus, UniProt P21729) | biodistribution | CF-1 mice, lung | intravenous, 1 h, with: bombesin 100 µg, blocking |  | tissue uptake | 0.35 ± 0.05 %ID/g
C[C@@](O)(C(F)F)[C@H](NC(=O)c1ccc(C#CC#CC2CC2)cc1)C(=O)NO | UDP-3-O-acyl-N-acetylglucosamine deacetylase (Escherichia coli K-12, UniProt P0A725) | target binding in plasma, rapid equilibrium dialysis | mouse plasma | 10 µM, with: LpxC 5 µM in buffer |  | buffer-to-plasma concentration ratio | 0.21 ± 0.02
CC(C)C[C@H](NC(=O)[C@@H]1CCCN1C(=O)[C@H](CCCCN)NC(=O)[C@@H](N)CO)C(=O)N1CCC[C@H]1C(=O)N[C@@H](CCC(=O)O)C(=O)N[C@H](C(=O)N[C@H](C(=O)N[C@@H](CC(=O)O)C(=O)N[C@@H](CCC(=O)O)C(=O)N[C@@H](Cc1ccc(O)cc1)C(=O)N[C@@H](Cc1cn(CCOCCOCCOCCNC(=O)CCc2ccc(O)c(CN(CCN(CC(=O)O)Cc3cc(CCC(=O)NCCCC[C@H](NC(=O)N[C@@H](CCC(=O)O)C(=O)O)C(=O)O)ccc3O)CC(=O)O)c2)nn1)C(=O)O)[C@@H](C)O)C(C)C [gallium-68 labelled] |  |  | NMRI nu/nu mice, LNCaP tumour, testes | 135.34 nmol/kg, low molar activity |  | standardized uptake value | 0.05 g/g
CC(C)C[C@@H]1NC(=O)[C@H](C(C)C)NC(=O)[C@H](CO)NC(=O)CNC(=O)CNC(=O)[C@H](CCCNC(=N)N)NC(=O)[C@@H]2CCCN2C(=O)[C@@H](NC(=O)CC[C@H](NC(=O)c2ccc(N(C)Cc3cnc4nc(N)nc(N)c4n3)cc2)C(=O)O)C(C)(C)SSC[C@@H](C(=O)O)NC(=O)CNC(=O)[C@H]([C@@H](C)O)NC(=O)[C@H](C(C)C)NC1=O |  | HPLC | HCl buffer | pH 1.0, 70 °C |  | degradation rate constant | 0.525 h⁻¹
N=C(N)NCCC[C@@H]1NC(=O)[C@H](CCCCNC(=O)CNC(=O)CNC(=O)CNC(=O)CC[C@H](NC(=O)CCOCCOCCOCCOCCNC(=O)CC[C@H](NC(=O)CN2CCN(CC(=O)O)CCN(CC(=O)O)CCN(CC(=O)O)CC2)C(=O)NCCOCCOCCOCCOCCC(=O)N[C@@H](CCC(=O)NCC(=O)NCC(=O)NCC(=O)NCCCC[C@@H]2NC(=O)[C@@H](Cc3ccccc3)NC(=O)[C@H](CC(=O)O)NC(=O)CNC(=O)[C@H](CCCNC(=N)N)NC2=O)C(=O)NCC(=O)NCC(=O)NCC(=O)NCCCC[C@@H]2NC(=O)[C@@H](Cc3ccccc3)NC(=O)[C@H](CC(=O)O)NC(=O)CNC(=O)[C@H](CCCNC(=N)N)NC2=O)C(=O)NCC(=O)NCC(=O)NCC(=O)NCCCC[C@@H]2NC(=O)[C@@H](Cc3ccccc3)NC(=O)[C@H](CC(=O)O)NC(=O)CNC(=O)[C@H](CCCNC(=N)N)NC2=O)NC(=O)[C@@H](Cc2ccccc2)NC(=O)[C@H](CC(=O)O)NC(=O)CNC1=O [indium-111 labelled] |  |  | female athymic nude mice, liver | intravenous, 3 µCi, 72 h, U-87 MG glioma xenograft |  | tissue uptake | 0.25 ± 0.06 %ID/g
CSCC[C@H](NC(=O)[C@H](CC(C)C)NC(=O)[C@H](Cc1c[nH]cn1)NC(=O)CNC(=O)[C@@H](NC(=O)[C@H](C)NC(=O)[C@H](Cc1c[nH]c2ccccc12)NC(=O)[C@H](CCC(N)=O)NC(=O)CCCCCNC(=O)CNC(=O)CNC(=O)CNC(=O)CSC(C)=O)C(C)C)C(N)=O [technetium-99m labelled] |  |  | Swiss mouse, pancreas | intravenous, 18.5 MBq, 30 min |  | tissue uptake | 2.78 ± 0.23 %ID/g
Nc1ccc(/C=C/C(=O)N2CCc3c(oc4c(-c5ccc(F)cc5)cc(-c5ccc(C(=O)N6CCC(F)(F)CC6)cn5)cc34)C2)cn1 | MIA PaCa-2 | western blot, measured: Bim |  | concentration not given |  | protein level | increased
CCCC[C@H](NC(=O)CCCCCCCNC(=O)c1ccc(NN)nc1)C(=O)N[C@H]1CC(=O)NCCCC[C@@H](C(N)=O)NC(=O)[C@H](Cc2c[nH]c3ccccc23)NC(=O)[C@H](CCCNC(=N)N)NC(=O)[C@@H](Cc2ccccc2)NC(=O)[C@H](Cc2c[nH]cn2)NC1=O [technetium-99m labelled] |  |  | C57 mouse, B16/F1 melanoma, brain | intravenous, 4 h |  | uptake | 0.02 ± 0.02 %ID/g
CC(ON1C(C)(C)CCCC1(C)C)c1ccc(NC(=O)[C@@H](NC(=O)[C@@H]2CCCN2C(=O)[C@H](C)NC(=O)[C@H](C)NC(=O)CCC(=O)O)C(C)C)cc1 (stereo partly shown) |  | EPR | buffer | 37 °C, no HNE |  | stability time | ≥ 16 h
N=C(N)NCCC[C@@H]1NC(=O)[C@H](CCCCNC(=O)CC[C@H](NC(=O)CCOCCOCCOCCOCCNC(=O)CN2CCN(CC(=O)O)CCN(CC(=O)O)CCN(CC(=O)O)CC2)C(=O)NCCCC[C@@H]2NC(=O)[C@@H](Cc3ccccc3)NC(=O)[C@H](CC(=O)O)NC(=O)CNC(=O)[C@H](CCCNC(=N)N)NC2=O)NC(=O)[C@@H](Cc2ccccc2)NC(=O)[C@H](CC(=O)O)NC(=O)CNC1=O [indium-111 labelled] |  |  | female athymic nude mice, spleen | intravenous, 3 µCi, 0.5 h, U-87 MG glioma xenograft |  | tissue uptake | 2.01 ± 0.43 %ID/g
N=C(N)NCCC[C@@H]1NC(=O)[C@H](CCCCNC(=O)CCOCCOCCOCCOCCNC(=O)CC[C@H](NC(=O)CCOCCOCCOCCOCCNC(=O)c2ccc(NN)nc2)C(=O)NCCOCCOCCOCCOCCC(=O)NCCCC[C@@H]2NC(=O)[C@@H](Cc3ccccc3)NC(=O)[C@H](CC(=O)O)NC(=O)CNC(=O)[C@H](CCCNC(=N)N)NC2=O)NC(=O)[C@@H](Cc2ccccc2)NC(=O)[C@H](CC(=O)O)NC(=O)CNC1=O [technetium-99m labelled] |  |  | female athymic nude mice, U-87 MG glioma xenograft, tumour and blood | intravenous, 2.5 µCi, 60 min | relative to: tumour over blood | tissue-to-tissue ratio | 36 ± 11.5
COc1ccc(CNc2nc(N3CCC[C@H]3CO)ncc2C(=O)NN)cc1Cl | Salmonella typhimurium |  | TA1535 | 500 µg/plate, 48 h |  | revertant count | 41 ± 6
N=C(N)NCCC[C@@H]1NC(=O)[C@H](CCCCNC(=O)CCOCCOCCOCCOCCNC(=O)CC[C@H](NC(=O)CCOCCOCCOCCOCCNC(=O)CC[C@H](NC(=O)CN2CCN(CC(=O)O)CCN(CC(=O)O)CCN(CC(=O)O)CC2)C(=O)NCCOCCOCCOCCOCCC(=O)N[C@@H](CCC(=O)NCCOCCOCCOCCOCCC(=O)NCCCC[C@@H]2NC(=O)[C@@H](Cc3ccccc3)NC(=O)[C@H](CC(=O)O)NC(=O)CNC(=O)[C@H](CCCNC(=N)N)NC2=O)C(=O)NCCOCCOCCOCCOCCC(=O)NCCCC[C@@H]2NC(=O)[C@@H](Cc3ccccc3)NC(=O)[C@H](CC(=O)O)NC(=O)CNC(=O)[C@H](CCCNC(=N)N)NC2=O)C(=O)NCCOCCOCCOCCOCCC(=O)NCCCC[C@@H]2NC(=O)[C@@H](Cc3ccccc3)NC(=O)[C@H](CC(=O)O)NC(=O)CNC(=O)[C@H](CCCNC(=N)N)NC2=O)NC(=O)[C@@H](Cc2ccccc2)NC(=O)[C@H](CC(=O)O)NC(=O)CNC1=O [indium-111 labelled] |  | planar imaging | athymic nude mouse, U-87 MG xenograft, tumour | intravenous |  | retention half-life | > 30 h
CSCC[C@H](NC(=O)[C@H](CC(C)C)NC(=O)[C@H](Cc1c[nH]cn1)NC(=O)CNC(=O)[C@@H](NC(=O)[C@H](C)NC(=O)[C@H](Cc1c[nH]c2ccccc12)NC(=O)[C@H](CCC(N)=O)NC(=O)CCCCCNC(=O)CN1CCN(CC(=O)O)CCN(CC(=O)O)CC1)C(C)C)C(N)=O [gallium-68 labelled] |  | microPET imaging | nude mouse PC-3 xenograft, PC-3 tumour | intravenous, 3.7 MBq, 30 min |  | mean tumour uptake | 3.28 ± 0.47 %ID/g
CCC(=O)N(C)c1ccc(Cl)c(Cl)c1 | Escherichia coli | Ames test | WP2 uvrA | 0.05 mg/plate, with rat liver S9 |  | revertants | 41 ± 9.7 revertants/plate
CCCCC/C=C\C/C=C\CCCCCCCC(=O)OC[C@H](NC(=O)[C@H](Cc1c[nH]c2ccccc12)NC(=O)[C@H](Cc1c[nH]cn1)NC(=O)[C@@H]1CCC(=O)N1)C(=O)N[C@@H](Cc1ccc(O)cc1)C(=O)N[C@H](CC(C)C)C(=O)N[C@@H](CC(C)C)C(=O)N[C@@H](CCCNC(=N)N)C(=O)N1CCC[C@H]1C(=O)NCC |  | HPLC | human plasma | 1 mg/mL, 37 °C, 50% degraded |  | time to degradation | 1280 min

Excerpt of the above:
Compound | tested on | test | test system | conditions | how to read | quantity | value
CCCC[C@H](NC(=O)CNC(=O)CNC(=O)c1ccc(NN)nc1)C(=O)N[C@H]1CC(=O)NCCCC[C@@H](C(N)=O)NC(=O)[C@H](Cc2c[nH]c3ccccc23)NC(=O)[C@H](CCCNC(=N)N)NC(=O)[C@@H](Cc2ccccc2)NC(=O)[C@H](Cc2c[nH]cn2)NC1=O [technetium-99m labelled] |  |  | C57 mouse, B16/F1 melanoma-bearing | intravenous, 2 h | relative to: tumour over skin | tissue uptake ratio | 42.9
